Results collected from several papers.
Each line is one published result; not all experiments were run side by side.
Target: STE20/SPS1-related proline-alanine-rich protein kinase (STK39, Homo sapiens, UniProt Q9UEW8)

SMILES	assay	test system	setting	how to read	endpoint	value
CCN1CCN(Cc2ccc(C(=O)Nc3ccc(C)c(NCc4cnc5[nH]ccc5c4OC)c3)cc2C(F)(F)F)CC1	binding, competition with immobilised ligand	–	1 µM	–	remaining binding	56%
Nc1ncc2c(n1)-c1c([nH]c3ccc(C4=CCOCC4)cc13)CCC2	binding, competition with immobilised ligand	–	1 µM	–	remaining binding	100%
CNC1C[S+]2CC[S+]3CC[S+](C1)[Ru-4]321([N]=C=S)[n]2c3ccc(OC)cc3c3c4c(c5cc(F)c[n+]1c5c32)C(=O)NC4=O (centres unmarked)	KinomeScan	–	0.1 µM	baseline: untreated	remaining binding	98%
COc1cc(Nc2nc(C)cc(-c3cnn4nc(OC)ccc34)n2)cc(C(F)(F)F)c1	binding, competition with immobilised ligand	–	1 µM	–	remaining binding	64%
CN1CCN(Cc2ccc(-c3ccc(CO[C@H]4CCC[C@@H]4NC(=O)c4cc(-c5cnn(C)c5)cnc4N)cc3)cc2)CC1	enzyme activity, inhibitor	–	0.1 µM	–	inhibition	-10%
Nc1ncc(-c2cc(-c3cnn(CC(F)(F)F)c3)ncc2F)nc1C(=O)NC1CNCC(F)C1 (centres unmarked)	enzyme activity	–	1 µM	baseline: DMSO control	remaining activity	81.6%
C#CCCCCNC(=O)c1ccc(N(C(=O)C=C)c2ccc(Br)cc2)cc1	mass spectrometry profiling	H460 cell lysate	100 µM over 10 µM, UniProt Q9UEW8	baseline: high over low concentration	reactivity ratio	1.85
O=C(Cc1ccc(OCc2ccccc2)cc1)NC1(C(=O)O)CCN(C(=O)c2ccc(-c3cccc(Cl)c3)cc2)CC1	enzyme activity, inhibitor	–	10 µM	–	activity vs control	118%
NC(=O)[C@@H](O)C[C@H]1CCc2sc3ncnc(O[C@H]4CC[C@H](N5CCOCC5)CC4)c3c21	enzyme activity, inhibitor	–	10 µM	–	inhibition	11%
CC(C)=CC1OC(C)(C)C2C=C3C(=O)C(Cl)=CC(O)C3C3C(O)C4OC4C(=O)C132 (centres unmarked)	cell-free assay, competition with immobilised ligand	–	10 µM	–	remaining binding	70%
COc1cc(Nc2nccc(-c3cnn4nc(OC)ccc34)n2)cc(C(F)(F)F)c1	binding, competition with immobilised ligand	–	1 µM	–	remaining binding	100%
C=CC(=O)N1Cc2nc(-c3cc(-c4cc(Cl)cnc4Cl)c(F)cc3F)n(-c3ccncn3)c2C1	cell-free assay, inhibitor	–	1 µM	–	inhibition	2%
C=CC(=O)N1CCc2ccc(-n3c(=O)ccc4cnc5ccc(-c6cnn(C)c6)cc5c43)cc21	KINOMEscan	–	1 µM	baseline: DMSO control	remaining binding	100%
Cc1ccc(-c2c(/C=C(\C#N)C(=O)NC(C)C)n(CCCO)c3ncnc(N)c23)cc1	cell-free assay, competition with immobilised ligand	–	1 µM	–	remaining binding	97%
C=CC(=O)Nc1cc(-c2nn(C3CCN(CCNC(=O)[C@H](C)CCC45CC6CC(CC(C6)C4)C5)CC3)c3ncnc(N)c23)ccc1Oc1ccccc1	inhibitor, KiNativ profiling	biochemical	2 µM	–	inhibition	29.2%
C=CC(=O)N1CCCC(n2c(=O)c3ncccc3n(Cc3ccc(Oc4ccccc4)cc3)c2=O)C1 (centres unmarked)	cell-free assay, competition with immobilised ligand	–	1 µM	–	remaining binding	81%
CNC(=O)C1CCN(c2cc(C)c(F)cc2NC(=O)c2ccc(-c3cc(O)ccc3C)c(C)c2)CC1	binding, competition with immobilised ligand	–	1 µM	–	remaining binding	100%
NC(=O)C[C@H]1CCc2sc3ncnc(O[C@H]4CC[C@H](N5CCOCC5)CC4)c3c21	enzyme activity, inhibitor	–	10 µM	–	inhibition	4%
COc1c(Cl)cccc1Nc1c(-c2ccncc2C#C[C@@]2(C)CCCN2C(=O)/C=C/CN(C)C)[nH]c2c1C(=O)NCC2	binding, competition with immobilised ligand	–	3 µM	–	remaining binding	72%
Cc1cnc2nc1Nc1cccc(c1)COC/C=C/COCc1cc(ccc1OCCN1CCOCC1)N2	binding, competition with immobilised ligand	–	0.1 µM	–	remaining binding	77%

Repeated from above:
SMILES	assay	test system	setting	how to read	endpoint	value
C=CC(=O)N1CCCC(n2c(=O)c3ncccc3n(Cc3ccc(Oc4ccccc4)cc3)c2=O)C1 (centres unmarked)	cell-free assay, competition with immobilised ligand	–	1 µM	–	remaining binding	81%
CNC(=O)C1CCN(c2cc(C)c(F)cc2NC(=O)c2ccc(-c3cc(O)ccc3C)c(C)c2)CC1	binding, competition with immobilised ligand	–	1 µM	–	remaining binding	100%
NC(=O)C[C@H]1CCc2sc3ncnc(O[C@H]4CC[C@H](N5CCOCC5)CC4)c3c21	enzyme activity, inhibitor	–	10 µM	–	inhibition	4%
